Published values collected from several papers.
Each numbered part is a random draw from the data of one study; scales do not carry over between parts.

Series 1 — technique: protein-binding microarray; form: double-stranded DNA, one strand shown; sample: in vitro; tested at: 250 nM; setting: 60-bp whole probe; added: salmon DNA 0.4 mg/ml; relative to: random background probes; direction: higher = stronger binding; constant ends, left off below: GCCTAGCAC … GTCTTGATTCGCTTGACGCTGCTG
Target: Interferon regulatory factor 5, full length, phosphomimetic (IRF5, Homo sapiens, UniProt Q13568-2, residues 1-514, K96S/S451D/S453D/S456D/S462D)
`GATGGAAACTTAAACTAGAAAGTGCTA` has a log fluorescence of 0.969 z-score.
`TTAGCTATCGGGTATCGGTTAGTGCTA` gave a log fluorescence of 6.97 z-score.
`GACGATTACAGTATCGAGACGTGCTAG` has a log fluorescence of 1.76 z-score.
For `GACGGTATCGGTATCGAGACGTGCTAG`, the log fluorescence was 6.52 z-score.
With `TCATCCTTCTGACATCAAACTGTGCTA` the log fluorescence was 0.698 z-score.

Series 2 — technique: aptamer microarray, sandwich; form: DNA with 2'F-ANA; sample: in vitro; tested at: 200 nM; added: Cy3 exosite-II aptamer, 400 nM; direction: higher = stronger binding; strand: GGTTGGTGTGGTTGG
Target: Prothrombin, mature alpha-thrombin (F2, Homo sapiens, UniProt P00734)
Setting: whole 15-mer aptamer, many near background
`2'F-ANA at 2 3 4 6 9 11 15`: “mean fluorescence intensity” 508 a.u.
For `2'F-ANA at 1 4 5 6 7 9 11 15`, “mean fluorescence intensity” read 56.2 a.u.
`2'F-ANA at 1 3 4 6 7 8 11 12 13 15` — result for “mean fluorescence intensity”: 258 a.u.
`2'F-ANA at 1 2 4 5 6 9 10 11 12 13 15`: “mean fluorescence intensity” 53.2 a.u.
`2'F-ANA at 2 3 5 7 12 14` — result for “mean fluorescence intensity”: 56.1 a.u.
Under “mean fluorescence intensity”, `2'F-ANA at 2 9 11` is recorded as 397 a.u.
For `2'F-ANA at 2 3 4 7 9 10 11 13`, “mean fluorescence intensity” read 229 a.u.

Series 3 — technique: protein binding microarray; form: double-stranded DNA, one strand shown; sample: in vitro; tested at: not given; relative to: not given; direction: higher = stronger binding
Target: Histone acetyltransferase KAT6A, winged helix 1, GST fusion (KAT6A, Homo sapiens, UniProt Q92794, residues 1-85)
Setting: 8-mer, flanks averaged, mean of 2 arrays, mostly near background
Residues (chain): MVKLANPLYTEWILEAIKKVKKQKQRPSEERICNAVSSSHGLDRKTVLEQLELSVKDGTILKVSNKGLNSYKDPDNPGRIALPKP
The E-score of `TAATAGAA` is reported as -0.174.
`TCTGGCAA` gave an E-score of -0.291.
With `CGTAGGAG` the E-score was 0.0312.
With `ATCGATAA` the E-score was 0.148.
`TACCCCTA` has an E-score of -0.244.
For `AGTGTCCA`, the E-score was -0.209.

Single results of other studies
`PhoQ, residues 284 288 289 292 302 303 TVTVVA` has a fold induction of 9.43 (PhoP, residues 12 14 15 18 19 NYFTV (Escherichia coli, UniProt P23836); Sort-seq, measured: YFP reporter; E. coli; PhoQ-PhoP variant library, added: 10 µM Mg2+; relative to: high Mg2+ state, higher = stronger signaling).

A few entries again (series 2):
`2'F-ANA at 2 3 4 6 9 11 15`: “mean fluorescence intensity” 508 a.u.
For `2'F-ANA at 1 4 5 6 7 9 11 15`, “mean fluorescence intensity” read 56.2 a.u.
`2'F-ANA at 1 3 4 6 7 8 11 12 13 15` — result for “mean fluorescence intensity”: 258 a.u.
